Measurements pooled from the literature.
Lines come from different studies, so protocols differ. Numbers after ± are the reported error.
Organism: SARS-CoV-2

CC1(C)NC(=O)N(c2ccc([N+](=O)[O-])c(C(F)(F)F)c2)C1=O — IC50 (viral replication; Huh-7): > 2000 nM
COc1ccccc1-c1ccc(CN2CCC(NC(=O)Cc3ccc(F)cc3)C2)cc1 (stereo not shown) — maximum response (cytopathic effect; USA_WA1/2020; round 1, 5-point): 90.6%
CN1[C@@H]2CC[C@H]1C[C@@H](OC1c3ccccc3CCc3ccccc31)C2 — EC50 (viral replication, high-content imaging screen; cell-based): > 50.1 µM
CC(C)N(CCO/N=C1\CCCCC\C1=C\c1ccccc1)C(C)C — inhibition (viral replication; Vero C1008, USA-WA1/2020; 2.5 µM, reconfirmation): 59.6%
Cc1nn(-c2ccc(Cl)cc2)c2c1C(c1ccc(Cl)cc1Cl)C(C#N)=C(N)O2 (stereo not shown) — viral titre (Vero; 1 µM): 840000 IU/mL
CN1CCC(=C2c3ccccc3Sc3ccccc32)CC1 — EC50 (viral replication, GFP plate reader screen; cell-based): > 100 µM
CC(NC(=O)[C@H](Cc1ccccc1)NC(=O)OCc1ccccc1)C(=O)CF (stereo partly shown) — IC50 (viral replication; Huh-7): 11 nM
Cc1cccc(C)c1NC(=O)CN1CCN(CCCC(c2ccc(F)cc2)c2ccc(F)cc2)CC1 — EC50 (viral replication, GFP plate reader screen; cell-based): 9.55 µM
C[C@H](CS)C(=O)N1CCC[C@H]1C(=O)O — viral replication inhibition (Vero E6; concentration not given, NYC laboratory): inactive
CN1CC[C@@H](NC(=O)Nc2ccc(C#N)cc2)C[C@@H]1c1nc2ccccc2[nH]1 — IC50 (viral replication; Huh-7): > 2000 nM
C1=C(c2ccc(CN3CCCCC3)cc2)N2CCN=C2c2ccccc21 — EC90 (viral replication; 293T-ACE2, USA-WA1/2020): 343 nM
Cc1c(C)c(NCC(=O)N(C)C2CCN(Cc3ccc(C(N)=O)cc3)CC2)c(C)c(C)c1N — IC50 (viral replication; Huh-7): > 2000 nM
O=C(NO)c1ccc(C2=Nc3ccccc3Oc3ccccc32)cc1 — EC50 (viral replication, high-content imaging screen; BetaCov/Belgium/GHB-03021/2020; cell-based): > 100 µM
CC1CCN(CCCC(=O)c2ccc(F)cc2)CC1 — IC50 (viral replication, anti-nucleoprotein immunostaining; Vero E6): > 10000 nM
CCN(CC)CCCNC(=O)CSc1c2c(nc3cc(Cl)ccc13)CCCC2 — AC50 (cytopathic effect, cell-based CPE; USA_WA1/2020; round 2, 5-point dilution): 14.1 µM
O=C(O[C@@H]1Cc2c(O)cc(O)cc2O[C@@H]1c1cc(O)c(O)c(O)c1)c1cc(O)c(O)c(O)c1 — CPE inhibition (viral replication; Vero E6; 1.562 µM; reference: mean of replicates): 0%
CC(C)(C)N1CCC(c2ccccc2)(c2ccccc2)CC1 — maximum response (cytopathic effect; USA_WA1/2020; round 1, 5-point): 40.7%
O=c1[nH]c2ccccc2n1CCCN1CCN(C(c2ccccc2)c2ccccc2)CC1 — EC50 (viral replication, high-content imaging screen; cell-based): > 100 µM
Cc1nn(-c2ccc(Cl)cc2)c2c1C(c1ccc(I)cc1)C(C#N)=C(N)O2 (stereo not shown) — Ct value (RT-qPCR, item: viral RNA; Vero; 1 µM; higher means less virus): 23.7 cycles
CCCN(CCC)CCNC(=O)c1cc(-c2ccc(Br)s2)nc2ccccc12 — efficacy (cytopathic effect; USA_WA1/2020; retest, 8-point, duplicates): 82%
CCN(CC)CCOCCOC(=O)C1(c2ccccc2)CCCC1 — IC50 (viral replication, RT-qPCR; A549 expressing ACE2): > 10000 nM
[N-]=[N+]=N[C@]1(CO)O[C@@H](n2ccc(N)nc2=O)[C@@H](F)[C@@H]1O — antiviral activity (imaging; Calu-3, Omicron BA.1; concentration not given): inactive
CCCN(CCC)CCCNC(=O)C1CCCN(Cc2nc(-c3ccc(Cl)cc3)oc2C)C1 (stereo not shown) — AC50 (cytopathic effect, cell-based CPE; USA_WA1/2020; round 2, 5-point dilution): 3.98 µM
CC/C(=C(/C#N)c1ccc(OCCN(CC)CC)cc1)c1ccc(Cl)cc1 — inhibition (viral replication; Vero E6, USA-WA1/2020; 2.5 µM): 50.5%
COc1cc2c(cc1OC)CN(CCc1ccc(NC(=O)c3cc(OC)c(OC)cc3NC(=O)c3cnc4ccccc4c3)cc1)CC2 — IC50 (viral replication; Vero E6; inactive set pIC50 4): > 10000 nM
Cc1nn(-c2ccc(Cl)cc2)c2c1C(c1ccc(-c3ccccc3)cc1)C(C#N)=C(N)O2 (stereo not shown) — viral titre (Vero; 10 µM): 525000 IU/mL
CC(C)(C)[C@H](NC(=O)C(F)(F)F)C(=O)N1C[C@H]2[C@@H]([C@H]1C(=O)N[C@H](C#N)C[C@@H]1CCNC1=O)C2(C)C — inhibition (viral replication, infectious virus; Vero E6; 0.1111 µM): 110%
CC(C)=CCc1c(O)ccc(C(=O)/C=C/c2ccc(O)cc2)c1O — CPE inhibition (viral replication; Vero E6; 100 µM; reference: mean of replicates): 93.3%
Cc1nn(-c2ccc(Cl)cc2)c2c1C(c1ccc(F)cc1F)C(C#N)=C(N)O2 (stereo not shown) — viral titre log reduction (Vero C1008; 1 µM; reference: positive control): 0.0033 log10
Cc1cccc(N2CCN(C(=O)C3CCN(Cc4nc(-c5ccc(Cl)cc5)oc4C)CC3)CC2)c1C — AC50 (cytopathic effect, cell-based CPE; USA_WA1/2020; round 1, 5-point dilution): 12.6 µM
CCOC1O[C@H]([C@@H](COCc2ccccc2)OCc2ccccc2)[C@H](OCc2ccccc2)[C@H]1O (stereo partly shown) — EC50 (viral replication, high-content imaging screen; cell-based): > 50.1 µM
O=C(/C=C/c1ccc(O)c(O)c1/C=C/c1ccc(O)c(O)c1)O[C@H](Cc1ccc(O)c(O)c1)C(=O)O — mean inhibition (cytopathic effect; Vero E6; 1.562 µM, replicate run): 0%
COc1ccc2c(c1)CCC(c1ccccc1)=C2c1ccc(OCCN2CCCC2)cc1 — EC50 (viral replication, high-content imaging screen; cell-based): > 100 µM
CCC(CC)COC(=O)[C@H](C)N[P@](=O)(OC[C@H]1O[C@@](C#N)(c2ccc3c(N)ncnn23)[C@H](O)[C@@H]1O)Oc1ccccc1 — EC90 (viral replication, qRT-PCR of viral RNA; Caco-2, Washington): 40 ± 20 nM
NCCCC[C@H](N[C@@H](CCc1ccccc1)C(=O)O)C(=O)N1CCC[C@H]1C(=O)O — viral replication inhibition (Vero E6; concentration not given, NYC laboratory): inactive
CCCCc1oc2ccc(NS(C)(=O)=O)cc2c1C(=O)c1ccc(OCCCN(CCCC)CCCC)cc1 — EC50 (viral replication, GFP plate reader screen; cell-based): 3.02 µM
CCc1ccc(Sc2cc(C(=O)NCCCN3CCC(C)CC3)c3ccccc3n2)cc1 — maximum response (cytopathic effect; USA_WA1/2020; retest, 8-point, duplicates): 85.5%
Cc1ccc(NS(=O)(=O)c2cccc(C(=O)NC3CCN(c4ncnc5[nH]cnc45)CC3)c2)cc1 — relative infection (A549-ACE2, Wuhan-Hu-1; 0.03048 µM; reference: untreated): 101%
COc1ccc(C[C@@H]2c3cc(Oc4cc(C[C@@H]5c6cc(O)c(OC)cc6CCN5C)ccc4O)c(OC)cc3CCN2C)cc1 — inhibition (viral cytopathic effect; Vero E6; 3.125 µM): 0%
CC(C)n1nc(-c2ccc3oc(N)nc3c2)c2c(N)ncnc21 — viral replication inhibition (concentration not given, Paris laboratory): inactive
COc1ccc(CC(=O)NC2CCN(Cc3ccc(-c4ccccc4OC)cc3)C2)cc1 (stereo not shown) — maximum response (cytopathic effect; USA_WA1/2020; round 1, 5-point): 88%
CO[C@@H]1CC/C=C/c2cccc(c2)[C@@H](CCNC(=O)OC(C)(C)C)OC(=O)[C@@H]2CCCN(N2)C(=O)[C@H](C)NC(=O)[C@H](C(C)C)NC(=O)[C@@H]1C — viral replication inhibition (Vero E6; concentration not given, NYC laboratory): inactive
COc1ccc(C(CN(C)C)C2(O)CCCCC2)cc1 (stereo not shown) — IC50 (viral replication, RT-qPCR; A549 expressing ACE2): > 10000 nM

A few entries again:
CCCCc1oc2ccc(NS(C)(=O)=O)cc2c1C(=O)c1ccc(OCCCN(CCCC)CCCC)cc1 — EC50 (viral replication, GFP plate reader screen; cell-based): 3.02 µM
COc1cc2c(cc1OC)CN(CCc1ccc(NC(=O)c3cc(OC)c(OC)cc3NC(=O)c3cnc4ccccc4c3)cc1)CC2 — IC50 (viral replication; Vero E6; inactive set pIC50 4): > 10000 nM
CCCN(CCC)CCNC(=O)c1cc(-c2ccc(Br)s2)nc2ccccc12 — efficacy (cytopathic effect; USA_WA1/2020; retest, 8-point, duplicates): 82%
CN1CC[C@@H](NC(=O)Nc2ccc(C#N)cc2)C[C@@H]1c1nc2ccccc2[nH]1 — IC50 (viral replication; Huh-7): > 2000 nM
O=C(O[C@@H]1Cc2c(O)cc(O)cc2O[C@@H]1c1cc(O)c(O)c(O)c1)c1cc(O)c(O)c(O)c1 — CPE inhibition (viral replication; Vero E6; 1.562 µM; reference: mean of replicates): 0%
